Assay results pooled from the literature.
A part holds a random share of what one study measured. Substitutions count along the parent as printed.

Study 1
Target: RNA binding protein fox-1 homolog 2, RRM domain, GST-SBP tag (RBFOX2, Homo sapiens, UniProt O43251-10, residues 100-194)
Method: RNA Bind-n-Seq
Molecule type: RNA
Sample: in vitro
Tested at: 365 nM
Notes: natural RNA segment, single round, ends assumed
Reference: no-protein control
Direction: higher = stronger binding
Shared flanks, not repeated: GGGAGUUCUACAGUCCGACGAUC … UGGAAUUCUCGGGUGCCAA
Residues (chain): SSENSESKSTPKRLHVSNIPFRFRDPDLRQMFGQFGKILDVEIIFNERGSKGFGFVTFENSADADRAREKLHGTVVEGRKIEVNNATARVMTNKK
| Oligonucleotide | RBNS enrichment (R) |
| --- | --- |
| UUCUUAAGUUUUUUAUCUCCAGAUCCUAAUUUAUGCCUAUGCAAAAAAUAAAUGACGCCCAAGAGCUUGGGAUGUGGCUUUCAUGUGGCUUUUGCCUAUCACCUAGGGCA | 0.848 |
| UGUUCAUUAGAGCAAAUUCAGGGGAAUUUUUGUUCUUUUUUUUUUUAUUUGGGGGCACUAAGUUUAGAUGAGAUGAAUUGCCUCAUAGGAAAUGGAAUUGGUCAGGAUAG | 1.05 |
| UGCUUUUCACAUAAAAUUGAGACAGUGUAUAUUUAAUCUAAUUUAAAUUUUAAAGAGAUACUGGUAUUUUGAAAAUGCAACCUAUAUAUAUUCUUAAUAUCCUUUUAAGA | 0.781 |
| GUUAAUACAAGGUAUAAUAAAAUUAUCGCAACCCCUCUCCUUCCAGUAUAACCAGCUGAAGUUGCAGAUGUUAGAUAUUUUUCAUAAACAAGUUCGAGUCAAAGUUGAAA | 0.327 |
| GGGGGAGAAGAAAGGCUUAUCUUUAUAUUUAUACAUGCCUACAAGGAAGACAGACUCAUCCAGCGCCACCUCGGGCCCUCCCAGCACACGCAUGGUCUCUUCACUGCUGC | 2.29 |
| GACGCAGCACCCGAGGUCCCAGCCUUUGCAGGAGCCUCCCUGGGCUUAGCUGGACUUAGAUCUUCGGUGGCCUCAUGUAAACGUGGCAGCCAGCCUCUUCUAGAACCCUA | 0.303 |
| GUUCUUGCAUGUGGAUGUGUGUUUCCCCAGGCAGACGGCCCCUCUCUUCCCAGCACUUCCCUGCCUCCCCCAGGCCUCAGGCCCAGCACCCAGUUCCUCCUCACAUGGCA | 6.13 |
| UCAGAGUUAUUUGUUAAUUUUUAAGGAAAUUAUAUACUUAAUAUGUAUUGAUUAAAAGAAACAUUUCAGAAAUAAAAUUUCAACAUUGUUCAUUUUCUCUGAUAAAUCAG | 0.796 |
| UGGGGUUAGAAACCUGCAAAGGCAGCCGGGCGUGGUGGCGCAUGCCUUUAAUCCCAGCACUCGGGAGGCAGAGGCAAGCGGAUUUCUGAGUUUGAGGCCAACCUGGUCUA | 1.83 |
| AUCACAGUCCCGCCGUGUCUUAGAAACUGCUUUGGCCGAUGCAAACAGCCCCCUACCCGUCCCCCUCGCCUCACACGGUCCCUCUCCGAGGCCGAGAAGACCUUCUGUUC | 0.45 |
| AUCAUGGCUCCUAUCAGUCUCAGAUUCCAGAUCUAGCAUUCCAGAUCUGAAUUUCAGAUUCAGAUCAGGCAUUGGCUGUAAAGUCUACCACGAAGUCCCAAUCUACCCUU | 0.221 |
| AAUAAAUUCCGGGAUAGUCGUUUUGUUCAAGGAAAUGUUUUGUAAAUUGAGCUCACACUAUAUAAUCUUUAUUGUCCUAUCCUGAUGUAUAAUACAGCAGGUAUAAUUAC | 0.632 |

Study 2
Target: ABI1, truncated, D143A, DHFR fusion (Arabidopsis thaliana)
Method: DHFR PCA, deep sequencing
Sample: yeast
Notes: methotrexate growth selection, single substitutions
Together with: (+)-ABA 710 µM
Reference: wild-type fitted maximum
Direction: higher = stronger binding
Parent: PYL1, truncated, DHFR fusion (Arabidopsis thaliana); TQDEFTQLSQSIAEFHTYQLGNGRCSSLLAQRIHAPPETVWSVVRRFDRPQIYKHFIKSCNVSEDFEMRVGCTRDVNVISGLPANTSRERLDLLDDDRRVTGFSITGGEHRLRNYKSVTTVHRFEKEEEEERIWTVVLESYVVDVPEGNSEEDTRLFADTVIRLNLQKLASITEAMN
| Substitution | relative binding score |
| --- | --- |
| E139Y | 103% |
| P83N | 46% |
| M68N | 97.8% |
| T120R | 8.91% |
| Q2W | 98.9% |
| S11K | 102% |
| Y53L | 18.4% |
| S63P | 114% |
| L156D | 93.3% |
| A84P | 21.4% |
| P36S | 96.3% |
| D159G | 89.6% |
| H55R | 101% |
| L91M | 103% |
| P36F | 93.7% |
| E129L | 109% |
| T86E | 98% |
| T135G | 27.3% |
| L20F | 98% |

Study 3
Target: CCNF, cyclin fold, Cln2 fusion (human)
Method: yeast growth competition, sequencing
Sample: yeast
Notes: strong parent motif
Reference: not given
Direction: higher = stronger binding
Parent: SCAPER docking peptide (human); SNARRSLNFGGST
| Substitution | normalised enrichment score |
| --- | --- |
| SPARRSLNFGGST [N2P] | 4.62 |
| SNARRSLNFMGST [G10M] | 6.65 |
| ANARRSLNFGGST [S1A] | 8.01 |
| SNACRSLNFGGST [R4C] | 6.46 |
| SNARRSLNFGNST [G11N] | 6.84 |
| SNARRSLNFGGSD [T13D] | 8.43 |
| SNARRHLNFGGST [S6H] | 7.95 |
| SNARRFLNFGGST [S6F] | 8.33 |
| SYARRSLNFGGST [N2Y] | 7.01 |
| SGARRSLNFGGST [N2G] | 7.67 |
| SRARRSLNFGGST [N2R] | 6.63 |
| SSARRSLNFGGST [N2S] | 7.12 |
| SNARRSNNFGGST [L7N] | 0.708 |
| STARRSLNFGGST [N2T] | 7.06 |
| SNARDSLNFGGST [R5D] | -0.0131 |
| SNARLSLNFGGST [R5L] | 0.313 |
| SNARRSLAFGGST [N8A] | 5.08 |
| SNARRSLNEGGST [F9E] | -0.296 |
| SNARRSLNFGGSV [T13V] | 7.94 |
| SNARRSLNMGGST [F9M] | 4.96 |
| SNARRSLNFGGSM [T13M] | 7.66 |
| SNARYSLNFGGST [R5Y] | 0.106 |
| SNARRSLDFGGST [N8D] | 6.22 |
| SNAVRSLNFGGST [R4V] | 5.48 |
| SNARRSLNDGGST [F9D] | 0.194 |

Study 4
Target: RING finger protein unkempt homolog, zinc fingers 1-6, SBP tag (UNK, Homo sapiens, UniProt Q9C0B0, residues 30-357)
Sequence of UniProt Q9C0B0 (30-357, looked up): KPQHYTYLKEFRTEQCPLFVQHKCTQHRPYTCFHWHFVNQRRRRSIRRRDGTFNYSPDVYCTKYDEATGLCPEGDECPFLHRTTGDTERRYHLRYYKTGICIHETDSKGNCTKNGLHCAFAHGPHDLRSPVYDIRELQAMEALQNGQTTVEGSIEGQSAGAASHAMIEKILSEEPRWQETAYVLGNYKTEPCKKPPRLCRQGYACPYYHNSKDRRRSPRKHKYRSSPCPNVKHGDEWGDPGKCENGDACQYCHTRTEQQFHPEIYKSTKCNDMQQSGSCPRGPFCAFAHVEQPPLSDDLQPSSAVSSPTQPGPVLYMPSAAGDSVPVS
Method: RNA Bind-n-Seq
Molecule type: RNA
Sample: in vitro
Tested at: 100 nM
Notes: RNA with constant flanks, vertebrate orthologous sites, ends assumed
Reference: input RNA pool
Direction: higher = stronger binding
Shared flanks, not repeated: GGGAGUUCUACAGUCCGACGAUC … CAACAGAGGAUUGAGCAUCA
| Oligonucleotide | bound/input enrichment [ratio] |
| --- | --- |
| UGCAUUAUUUGACAAGAGUUGAAGUGACAGAAUUUGAAGAUAUUAAAUCAGGUUACAGAAUAGAUUUUUAUUUUGAUGAAAACCCUUACUUCAAAAAUAAAAUUAGCUCCAAAGAAUUUC | 0.296 |
| CGAUCAUGGAGAAAAAGAUAUUAAAAUAAUUUCAUGGCACUGGCAUUAAUUUAAUUUAUGGUUAGUUUUACAAGUGUUAGUGUUCUUGUUUACAUACAGCAGGAACCGACUCUUAGAGAG | 0.429 |
| UCUGUAAGGGAAAAAAAAAAGAGAGUGAGAGAGAGAGGAUAAGAAAAGAACCCGAAUACAUAGAGCUUUUUAAUAGCACUAACCAAUGCCUUUUUUAGAUGUAUUUUUGAUGUAUAUAUC | 0.821 |
| AAAUAUACUUCAUGCCAUGGACUCCGUACCGCACGGAUACUUUGAUAGAAUAUGCUUCUCUGGAGGACUUCCAGAACGGACGCCAGCAGACGACGUACAAGCUCCCAAACCGAGUGGACG | 0.64 |
| AUGUAGUUUGUUUUUAAUUUCAAGCAAAAUCUUAUUGUACUUGAACGUGCCCUGUUUUGUUAGCACACCUAGACUUGCUGUAACUGUACUCAUGUCCCAGUAUGUACGUUCUUUCUAUGA | 0.824 |
| AGCAACUCAAGGAUUCAGAACUGGUUUUACAAAUGUCCCAAGCAGAUAUGGAACCAACGCUCGUGGUCAACCCCGACCGUAAUAAACACCAUUAUUUAUUAUACUUAAGGGUAUUGACUU | 0.208 |
| CAUAAAAUAUUGGAUGCAGUGUAUAAAUUAUCCAAGGCAGUGACUUCAGCUUUAUAUAUAUUGUUAGUUUUAAAGUCAUCUACUUUUAUUUAAACUUCUAGAUUGGACUAUUUGCUAUUG | 0.572 |
| GGGACGCUUUGAUGUAAAAAUUGAAAUUAAGAGCUGAUCACAAGCACAAAUCUUUCCCACUAGCCAUUUAAUAAGUUAAAAAAAGAUACACAAACCUACUAGUCUUGAACAAACUGUCAU | 2.56 |
| CAUUGUACCCUGCUGUAUAAUAAACAAUCUUAGACAUUUAUCAACUGUUGAUACAAAUGUUAGUCCCUAACCACUUUUUAUAUGUUUUAAAUUUUUGAAAUUCAAGUGUACCUGCCGUAA | 1.85 |
| AGGGAGAAGAGCUCACAAACUCAAAGGAAAACUAGUAAAGAGUUUCUAAUAGUUAAAAGCUAGGAAAGAUUAGGACGACUUUACAAAUGAGCAAUUAAAAAUAAAACAAAAGAAAAAGGA | 0.987 |
| CUAUAUGUAGAAAAACAAUUUUCACUGAAGCCAUUGUCAAGUUUUCCCCCUAGAAUUUUAUUAGGAGCUCUUUAAUUUUAUACAAGCUUGCUGUGUUGGUCAUCAUUUCUCCACAGUUAA | 0.849 |
